Experimental data from different studies.
Parts stem from different laboratories: compare values within a part only. “And” joins repeats or separate records; there may be more than shown.
Chain of UniProt Q00537 (whole entry, looked up): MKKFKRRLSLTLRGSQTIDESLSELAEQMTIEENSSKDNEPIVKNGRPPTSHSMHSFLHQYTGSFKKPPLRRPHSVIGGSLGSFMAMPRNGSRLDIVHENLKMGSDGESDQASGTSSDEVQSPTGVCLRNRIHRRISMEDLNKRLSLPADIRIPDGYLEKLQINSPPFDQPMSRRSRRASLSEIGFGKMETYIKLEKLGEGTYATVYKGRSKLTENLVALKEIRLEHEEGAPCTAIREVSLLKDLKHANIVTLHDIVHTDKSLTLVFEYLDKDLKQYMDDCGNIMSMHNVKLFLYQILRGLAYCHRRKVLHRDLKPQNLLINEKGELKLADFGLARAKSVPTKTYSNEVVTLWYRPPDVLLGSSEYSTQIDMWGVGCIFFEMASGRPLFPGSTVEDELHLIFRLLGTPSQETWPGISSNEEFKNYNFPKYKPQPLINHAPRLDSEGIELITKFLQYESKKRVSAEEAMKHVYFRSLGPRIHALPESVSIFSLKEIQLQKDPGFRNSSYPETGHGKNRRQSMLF
Chain of UniProt P48730 (whole entry, looked up): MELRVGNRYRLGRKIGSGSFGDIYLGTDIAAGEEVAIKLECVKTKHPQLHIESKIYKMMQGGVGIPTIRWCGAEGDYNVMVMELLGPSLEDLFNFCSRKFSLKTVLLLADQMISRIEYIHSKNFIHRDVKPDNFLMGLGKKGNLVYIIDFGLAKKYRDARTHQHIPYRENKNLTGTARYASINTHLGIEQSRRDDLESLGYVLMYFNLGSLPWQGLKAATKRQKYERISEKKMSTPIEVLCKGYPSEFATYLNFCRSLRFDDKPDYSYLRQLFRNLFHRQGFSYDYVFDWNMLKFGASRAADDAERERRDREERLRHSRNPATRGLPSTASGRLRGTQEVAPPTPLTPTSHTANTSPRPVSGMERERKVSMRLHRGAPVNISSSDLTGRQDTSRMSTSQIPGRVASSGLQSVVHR
Chain of UniProt Q15349 (whole entry, looked up): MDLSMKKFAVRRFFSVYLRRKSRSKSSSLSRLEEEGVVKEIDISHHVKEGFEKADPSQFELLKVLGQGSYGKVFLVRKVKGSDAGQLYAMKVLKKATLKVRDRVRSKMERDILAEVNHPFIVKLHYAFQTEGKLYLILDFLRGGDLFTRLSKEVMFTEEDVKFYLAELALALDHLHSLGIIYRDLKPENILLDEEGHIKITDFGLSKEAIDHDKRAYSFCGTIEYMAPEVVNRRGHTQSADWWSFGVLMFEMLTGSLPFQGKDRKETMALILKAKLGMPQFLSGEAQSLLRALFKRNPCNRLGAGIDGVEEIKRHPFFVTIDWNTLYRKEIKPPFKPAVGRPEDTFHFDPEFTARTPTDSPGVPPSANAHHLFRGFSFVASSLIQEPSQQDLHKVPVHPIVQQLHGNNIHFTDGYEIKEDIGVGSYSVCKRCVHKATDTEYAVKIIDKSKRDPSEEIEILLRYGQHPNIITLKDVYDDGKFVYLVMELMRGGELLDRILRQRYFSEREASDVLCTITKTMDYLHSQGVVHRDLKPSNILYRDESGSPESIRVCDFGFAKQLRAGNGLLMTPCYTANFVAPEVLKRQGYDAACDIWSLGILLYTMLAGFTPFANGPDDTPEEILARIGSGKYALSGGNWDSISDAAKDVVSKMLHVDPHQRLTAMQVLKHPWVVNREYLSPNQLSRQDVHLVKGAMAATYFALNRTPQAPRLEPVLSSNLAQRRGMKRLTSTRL
Chain of UniProt Q8N752 (whole entry, looked up): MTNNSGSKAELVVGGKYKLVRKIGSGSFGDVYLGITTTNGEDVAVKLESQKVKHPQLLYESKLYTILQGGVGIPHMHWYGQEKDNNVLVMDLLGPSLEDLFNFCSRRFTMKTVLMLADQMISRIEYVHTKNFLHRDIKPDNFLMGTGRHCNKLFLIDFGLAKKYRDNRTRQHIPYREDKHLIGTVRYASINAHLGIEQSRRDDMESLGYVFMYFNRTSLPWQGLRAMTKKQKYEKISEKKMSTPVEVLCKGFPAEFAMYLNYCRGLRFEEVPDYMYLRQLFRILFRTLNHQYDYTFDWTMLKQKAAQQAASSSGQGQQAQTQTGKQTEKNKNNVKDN
Chain of UniProt Q96L34 (whole entry, looked up): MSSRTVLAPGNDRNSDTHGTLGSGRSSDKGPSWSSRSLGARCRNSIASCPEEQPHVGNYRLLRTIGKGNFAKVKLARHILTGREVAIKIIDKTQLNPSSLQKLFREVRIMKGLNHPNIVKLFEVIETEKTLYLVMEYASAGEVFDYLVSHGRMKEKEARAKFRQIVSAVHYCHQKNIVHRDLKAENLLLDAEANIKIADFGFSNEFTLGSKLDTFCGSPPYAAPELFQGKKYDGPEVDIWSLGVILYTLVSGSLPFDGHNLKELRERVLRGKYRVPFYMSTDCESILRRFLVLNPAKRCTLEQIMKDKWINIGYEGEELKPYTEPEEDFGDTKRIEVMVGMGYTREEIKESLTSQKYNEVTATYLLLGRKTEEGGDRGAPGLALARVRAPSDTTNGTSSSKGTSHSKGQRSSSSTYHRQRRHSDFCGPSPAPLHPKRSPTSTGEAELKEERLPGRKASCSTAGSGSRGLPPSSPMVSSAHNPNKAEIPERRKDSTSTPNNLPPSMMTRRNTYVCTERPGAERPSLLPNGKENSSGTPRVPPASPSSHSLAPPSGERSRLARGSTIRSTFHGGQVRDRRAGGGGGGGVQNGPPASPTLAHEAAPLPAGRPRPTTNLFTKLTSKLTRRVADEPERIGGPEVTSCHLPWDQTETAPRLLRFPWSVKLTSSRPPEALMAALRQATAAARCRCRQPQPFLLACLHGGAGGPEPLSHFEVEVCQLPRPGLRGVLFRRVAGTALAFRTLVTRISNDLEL
Chain of UniProt P11362 (whole entry, looked up): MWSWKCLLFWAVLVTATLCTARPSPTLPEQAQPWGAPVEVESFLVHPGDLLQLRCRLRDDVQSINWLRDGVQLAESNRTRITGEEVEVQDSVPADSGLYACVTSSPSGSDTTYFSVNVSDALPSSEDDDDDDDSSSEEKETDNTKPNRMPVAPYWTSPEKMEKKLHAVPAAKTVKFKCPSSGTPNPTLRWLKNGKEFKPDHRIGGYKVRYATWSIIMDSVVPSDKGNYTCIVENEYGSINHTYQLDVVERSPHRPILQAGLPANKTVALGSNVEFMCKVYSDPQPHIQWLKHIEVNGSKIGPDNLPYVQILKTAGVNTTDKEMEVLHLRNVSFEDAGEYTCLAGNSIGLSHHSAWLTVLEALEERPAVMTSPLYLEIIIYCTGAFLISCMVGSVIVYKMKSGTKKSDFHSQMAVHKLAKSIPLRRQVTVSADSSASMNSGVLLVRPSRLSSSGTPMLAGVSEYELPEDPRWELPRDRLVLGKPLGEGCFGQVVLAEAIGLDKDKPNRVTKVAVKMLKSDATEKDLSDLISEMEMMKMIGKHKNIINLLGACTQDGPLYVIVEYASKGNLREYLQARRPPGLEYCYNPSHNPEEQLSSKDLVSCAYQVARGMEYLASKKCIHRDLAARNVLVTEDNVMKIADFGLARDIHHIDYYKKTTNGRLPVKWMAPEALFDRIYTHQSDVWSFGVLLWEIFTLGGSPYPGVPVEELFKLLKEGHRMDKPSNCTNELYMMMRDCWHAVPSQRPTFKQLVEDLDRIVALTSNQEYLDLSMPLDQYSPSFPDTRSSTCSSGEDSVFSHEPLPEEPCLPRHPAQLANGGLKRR
Chain of UniProt Q9BWU1 (whole entry, looked up): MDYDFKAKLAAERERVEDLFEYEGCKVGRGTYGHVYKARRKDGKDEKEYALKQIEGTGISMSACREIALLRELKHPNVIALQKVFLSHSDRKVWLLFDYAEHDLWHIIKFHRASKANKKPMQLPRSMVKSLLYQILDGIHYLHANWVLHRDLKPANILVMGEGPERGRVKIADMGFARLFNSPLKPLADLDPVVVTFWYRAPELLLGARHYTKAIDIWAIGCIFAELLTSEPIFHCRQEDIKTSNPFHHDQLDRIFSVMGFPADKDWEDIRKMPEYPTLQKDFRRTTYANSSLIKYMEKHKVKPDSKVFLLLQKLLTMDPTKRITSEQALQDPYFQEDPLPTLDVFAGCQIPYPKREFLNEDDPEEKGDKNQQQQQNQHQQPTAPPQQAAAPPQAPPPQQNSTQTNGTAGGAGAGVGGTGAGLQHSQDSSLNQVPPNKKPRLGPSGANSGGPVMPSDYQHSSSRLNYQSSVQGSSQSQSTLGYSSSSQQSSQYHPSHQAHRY
Chain of UniProt Q86YV6 (whole entry, looked up): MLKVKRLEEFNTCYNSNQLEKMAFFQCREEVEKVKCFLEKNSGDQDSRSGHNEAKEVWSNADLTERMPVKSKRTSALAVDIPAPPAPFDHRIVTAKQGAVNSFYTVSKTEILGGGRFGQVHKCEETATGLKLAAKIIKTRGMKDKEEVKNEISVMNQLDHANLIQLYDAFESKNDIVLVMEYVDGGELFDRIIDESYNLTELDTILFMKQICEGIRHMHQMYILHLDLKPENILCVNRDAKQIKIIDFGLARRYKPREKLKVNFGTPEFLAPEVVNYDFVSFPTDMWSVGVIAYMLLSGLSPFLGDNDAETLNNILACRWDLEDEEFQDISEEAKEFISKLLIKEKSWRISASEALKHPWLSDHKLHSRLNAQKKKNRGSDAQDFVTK

Set 1 — cell line: HaCaT; concentration: 100 µM; time: 18 h; endpoint: viability
CCOC(=O)[C@H](CCc1ccccc1)N[C@@H](C)C(=O)N1CCC[C@H]1C(=O)O: 108%
C=C1CCN([C@H](C)[C@](O)(Cn2cncn2)c2ccc(F)cc2F)CC1: 30.1%
COc1ccc(-n2nc(C(N)=O)c3c2C(=O)N(c2ccc(N4CCCCC4=O)cc2)CC3)cc1: 82%
CO/N=C1\CN(c2nc3c(cc2F)c(=O)c(C(=O)O)cn3C2CC2)CC1CN (centres unmarked): 94%
CC1CCc2c(N3CCC(O)CC3)c(F)cc3c(=O)c(C(=O)O)cn1c23 (centres unmarked): 115%
CC(=O)O[C@H]1C[C@@H]2CC[C@@H]3[C@H](CC[C@@]4(C)[C@H]3C[C@H]([N+]3(C)CCCCC3)[C@@H]4OC(C)=O)[C@@]2(C)C[C@@H]1N1CCCCC1: 97%

Set 2 — observed: enzyme activity; mode: inhibitor; concentration: 0.5 µM; baseline: control; endpoint: remaining activity
Target: Ephrin type-B receptor 3 (EPHB3, Homo sapiens, UniProt P54753)
Construct (P54753 1-998): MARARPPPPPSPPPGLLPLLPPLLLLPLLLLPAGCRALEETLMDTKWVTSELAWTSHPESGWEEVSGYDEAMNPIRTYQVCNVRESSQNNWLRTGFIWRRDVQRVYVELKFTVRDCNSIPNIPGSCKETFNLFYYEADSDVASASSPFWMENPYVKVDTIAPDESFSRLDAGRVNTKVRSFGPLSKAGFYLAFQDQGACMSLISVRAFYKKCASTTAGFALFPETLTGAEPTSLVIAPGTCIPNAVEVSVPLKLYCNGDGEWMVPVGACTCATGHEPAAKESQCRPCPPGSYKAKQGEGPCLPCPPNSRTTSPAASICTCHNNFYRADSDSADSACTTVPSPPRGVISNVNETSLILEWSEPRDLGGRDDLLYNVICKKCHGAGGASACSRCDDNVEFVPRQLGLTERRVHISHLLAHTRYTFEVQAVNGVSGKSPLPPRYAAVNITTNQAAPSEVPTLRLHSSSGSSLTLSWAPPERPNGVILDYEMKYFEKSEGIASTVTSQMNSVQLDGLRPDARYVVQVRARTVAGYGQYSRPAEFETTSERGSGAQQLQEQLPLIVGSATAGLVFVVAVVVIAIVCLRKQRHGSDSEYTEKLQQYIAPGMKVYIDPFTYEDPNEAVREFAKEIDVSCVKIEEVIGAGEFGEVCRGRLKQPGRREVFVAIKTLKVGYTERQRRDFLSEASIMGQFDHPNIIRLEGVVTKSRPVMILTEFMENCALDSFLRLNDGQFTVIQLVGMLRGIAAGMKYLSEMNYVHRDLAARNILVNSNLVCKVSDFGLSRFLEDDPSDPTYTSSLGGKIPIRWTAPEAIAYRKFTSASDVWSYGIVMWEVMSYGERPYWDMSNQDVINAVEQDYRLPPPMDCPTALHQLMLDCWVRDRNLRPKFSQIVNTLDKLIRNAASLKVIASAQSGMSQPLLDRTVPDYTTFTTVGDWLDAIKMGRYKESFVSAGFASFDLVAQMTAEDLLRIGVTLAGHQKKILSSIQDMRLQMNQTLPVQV
O=C1c2ccccc2-c2n[nH]c3cccc1c23: 92.5%
Cc1cc2ncc(-c3ccccc3)nc2cc1C: 98.4%
Cn1nc2c3c(cccc31)C(=O)c1ccccc1-2: 85.5%
CCOc1nc(NC(=O)Cc2cc(OC)ccc2OC)cc(N)c1C#N: 95.9%
N#C/C(=C\c1ccc(O)c(O)c1)C(=O)NCc1ccccc1: 101%
C[C@@H]1CCN(C(=O)CC#N)C[C@@H]1N(C)c1ncnc2[nH]ccc12: 54.9%

Set 3 — host: human; medium: microsomes or S9; concentration: 2 µM; time: 0.5 h; endpoint: remaining compound
COCCN(CC1CCCN(C2Cc3ccccc3C2)C1)C(=O)Cc1c[nH]c2ccccc12 (centres unmarked): 5.53%
Nc1ncnc2c1ncn2C[C@@H]1CC[C@H](c2nc(C3CCC3)no2)O1: > 100%
CNS(=O)(=O)c1cn(CC(=O)Nc2ccc(C)cn2)cc1S(=O)(=O)NC: 99.5%
O=C(Nc1nnc(Cc2ccc3c(c2)OCO3)o1)c1cc2ccccc2o1: 29.8%
COCc1cccc(C(=O)OCC(=O)c2ccc(CCCNC(C)=O)cc2)c1: 1.12%
O=C(c1c(OCC2CC2)cc(=O)n2c1CCOCC2)N1CCN(c2ccccc2F)CC1: 69.8%
NC1=C(c2nc3ccccc3s2)C(=O)CN1CC1COCCO1 (centres unmarked): > 100%
Cc1ccc(S(=O)(=O)N2CCN(C(=O)CN3CCOCC3)C2c2ccc(Cl)cc2Cl)cc1 (centres unmarked): 2.65%

Set 4 — concentration: 1 µM; endpoint: remaining binding
Structure (SMILES): CCc1ccccc1C(=O)Nc1n[nH]c2c(C)c(F)c(C3C(C#N)=C(C)N(C)C(C)=C3C#N)cc12
SRSF protein kinase 1 (SRPK1, Homo sapiens, UniProt Q96SB4); cell-free assay, competition with immobilised ligand: 89%
Bone morphogenetic protein receptor type-1B (BMPR1B, Homo sapiens, UniProt O00238); cell-free assay, competition with immobilised ligand: 96%
MAP/microtubule affinity-regulating kinase 4 (MARK4, Homo sapiens, UniProt Q96L34); cell-free assay, competition with immobilised ligand: 51%
Fibroblast growth factor receptor 1 (FGFR1, Homo sapiens, UniProt P11362); cell-free assay, competition with immobilised ligand: 97%
Wee1-like protein kinase (WEE1, Homo sapiens, UniProt P30291); cell-free assay, competition with immobilised ligand: 100%
Serine/threonine-protein kinase Nek5 (NEK5, Homo sapiens, UniProt Q6P3R8); cell-free assay, competition with immobilised ligand: 100%
Casein kinase I isoform alpha-like (CSNK1A1L, Homo sapiens, UniProt Q8N752); cell-free assay, competition with immobilised ligand: 62%
Cyclin-dependent kinase 17 (CDK17, Homo sapiens, UniProt Q00537); cell-free assay, competition with immobilised ligand: 93%
Proto-oncogene tyrosine-protein kinase Src (SRC, Homo sapiens, UniProt P12931); cell-free assay, competition with immobilised ligand: 94%
Myosin light chain kinase family member 4 (MYLK4, Homo sapiens, UniProt Q86YV6); cell-free assay, competition with immobilised ligand: 100%
Cyclin-dependent kinase 19 (CDK19, Homo sapiens, UniProt Q9BWU1); competition binding: 100%
Ephrin type-A receptor 7 (EPHA7, Homo sapiens, UniProt Q15375); cell-free assay, competition with immobilised ligand: 81%
Ephrin type-A receptor 8 (EPHA8, Homo sapiens, UniProt P29322); cell-free assay, competition with immobilised ligand: 79%
Ribosomal protein S6 kinase alpha-2, N-terminal kinase domain (RPS6KA2, Homo sapiens, UniProt Q15349); cell-free assay, competition with immobilised ligand: 0%
Hepatocyte growth factor receptor (MET, Homo sapiens, UniProt P08581, M1250T); cell-free assay, competition with immobilised ligand: 25%
Casein kinase I isoform delta (CSNK1D, Homo sapiens, UniProt P48730); cell-free assay, competition with immobilised ligand: 100%
Mitogen-activated protein kinase kinase kinase 6 (MAP3K6, Homo sapiens, UniProt O95382); cell-free assay, competition with immobilised ligand: 100%

Mixed results
Ic1ccc(Nc2nc(NCCN3CCOCC3)nc(N3CCOCC3)n2)cc1  mRNA level (Gaucher fibroblasts; qPCR, measured: GBA1 mRNA; 1 µM, unit not given; baseline: vehicle): 0.823 and 0.722 and 1.01 and 0.544 and 1.13

Some of these lines once more (set 4):
Proto-oncogene tyrosine-protein kinase Src (SRC, Homo sapiens, UniProt P12931); cell-free assay, competition with immobilised ligand: 94%
Bone morphogenetic protein receptor type-1B (BMPR1B, Homo sapiens, UniProt O00238); cell-free assay, competition with immobilised ligand: 96%
